Measurements of several laboratories.
A part holds a random share of what one study measured. Changes are numbered by the printed parent chain.

Set 1 — method: DHFR PCA, deep sequencing; sample: yeast; together with: (+)-ABA 0.11 µM; reference: wild-type fitted maximum; direction: higher = stronger binding
Target: ABI1, truncated, D143A, DHFR fusion (Arabidopsis thaliana)
Notes: methotrexate growth selection, single substitutions
Parent: PYL1, truncated, DHFR fusion (Arabidopsis thaliana); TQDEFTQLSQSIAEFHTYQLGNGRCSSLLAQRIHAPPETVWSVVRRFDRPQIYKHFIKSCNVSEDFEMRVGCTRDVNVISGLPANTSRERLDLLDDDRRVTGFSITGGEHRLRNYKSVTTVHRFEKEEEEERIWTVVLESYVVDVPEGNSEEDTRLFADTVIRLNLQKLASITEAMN; partner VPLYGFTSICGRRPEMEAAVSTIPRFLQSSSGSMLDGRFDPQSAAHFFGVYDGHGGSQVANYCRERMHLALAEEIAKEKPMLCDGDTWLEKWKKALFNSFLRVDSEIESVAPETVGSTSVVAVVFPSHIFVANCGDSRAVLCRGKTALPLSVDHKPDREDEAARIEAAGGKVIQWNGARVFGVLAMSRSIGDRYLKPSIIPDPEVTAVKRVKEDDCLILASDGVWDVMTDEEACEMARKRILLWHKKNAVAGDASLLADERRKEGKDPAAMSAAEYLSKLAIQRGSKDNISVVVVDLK
For `S171V`, “relative binding score” read 28.1%.
`R123E`: “relative binding score” 48.8%.
`T39P` — result for “relative binding score”: -7.86%.
`V76S`: “relative binding score” -0.204%.
`H110P`: “relative binding score” 74.9%.
For `D96M`, “relative binding score” read -6.64%.
Under “relative binding score”, `E128F` is recorded as 22.2%.
`G71F` — result for “relative binding score”: 7.99%.
For `F56I`, “relative binding score” read -0.22%.
For `N149D`, “relative binding score” read 18.1%.
For `A170M`, “relative binding score” read 8.27%.
For `T173D`, “relative binding score” read 1.23%.
`F47L`: “relative binding score” 11.9%.
Under “relative binding score”, `M68A` is recorded as 4.48%.
Under “relative binding score”, `C60E` is recorded as -3.12%.
`R24H` — result for “relative binding score”: 8.82%.
`R163I` — result for “relative binding score”: -13.1%.

Set 2 — method: universal PBM; molecule type: double-stranded DNA, one strand shown; sample: in vitro; tested at: 600 nM; direction: higher = stronger binding
Target: Sal-like protein 4, full length isoform A (SALL4, Homo sapiens, UniProt Q9UJQ4, residues 1-1053)
Chain of UniProt Q9UJQ4 (whole entry, looked up): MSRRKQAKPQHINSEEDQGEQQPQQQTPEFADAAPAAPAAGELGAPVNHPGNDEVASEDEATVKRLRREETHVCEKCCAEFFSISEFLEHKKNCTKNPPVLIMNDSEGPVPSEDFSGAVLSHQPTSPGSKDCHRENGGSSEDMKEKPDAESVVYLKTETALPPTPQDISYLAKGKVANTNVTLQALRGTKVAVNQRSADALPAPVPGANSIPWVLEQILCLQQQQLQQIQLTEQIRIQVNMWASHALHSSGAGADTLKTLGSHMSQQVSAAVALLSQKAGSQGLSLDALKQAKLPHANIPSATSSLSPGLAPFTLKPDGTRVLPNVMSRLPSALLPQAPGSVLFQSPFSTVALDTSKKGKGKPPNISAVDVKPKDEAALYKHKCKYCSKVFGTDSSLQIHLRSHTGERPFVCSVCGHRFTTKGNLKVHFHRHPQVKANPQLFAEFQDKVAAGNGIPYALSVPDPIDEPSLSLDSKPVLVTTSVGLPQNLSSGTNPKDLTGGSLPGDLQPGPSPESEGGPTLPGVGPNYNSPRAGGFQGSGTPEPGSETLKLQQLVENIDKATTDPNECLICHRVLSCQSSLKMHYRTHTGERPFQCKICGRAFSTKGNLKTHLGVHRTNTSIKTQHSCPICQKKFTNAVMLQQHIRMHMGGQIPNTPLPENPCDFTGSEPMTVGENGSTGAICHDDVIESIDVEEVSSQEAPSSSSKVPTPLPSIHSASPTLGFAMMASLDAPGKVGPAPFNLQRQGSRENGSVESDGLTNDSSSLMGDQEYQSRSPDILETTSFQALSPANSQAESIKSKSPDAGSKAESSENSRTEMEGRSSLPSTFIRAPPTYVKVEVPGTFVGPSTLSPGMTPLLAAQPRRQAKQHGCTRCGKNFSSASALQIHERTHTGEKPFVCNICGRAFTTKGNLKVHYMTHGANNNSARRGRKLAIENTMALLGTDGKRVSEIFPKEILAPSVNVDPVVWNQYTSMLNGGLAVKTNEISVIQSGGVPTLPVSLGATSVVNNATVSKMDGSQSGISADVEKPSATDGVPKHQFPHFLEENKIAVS
Notes: 8-mer, flanks averaged, mean of replicates
For `GTTTATAA`, the E-score was 0.36.
For `CCTGATAG`, the E-score was -0.137.
For `CAATTAGG`, the E-score was 0.114.
For `CCGGCGAC`, the E-score was -0.351.
With `CACCAGGC` the E-score was -0.351.
`GCGGCAAC` has an E-score of -0.23.
The E-score of `CGACAACG` is reported as -0.101.
`ACCCTGGA` gave an E-score of -0.156.
`CATTATCC` has an E-score of 0.161.
For `ACCCCACA`, the E-score was -0.125.
`ATCATTAC` has an E-score of 0.3.
With `AAAGTTAC` the E-score was 0.158.
The E-score of `GGAGTGCC` is reported as -0.271.
With `AGCATAAA` the E-score was 0.33.
`CAGCGCCA` has an E-score of -0.274.
For `GCACGTTA`, the E-score was -0.0255.
The E-score of `AGGACTCG` is reported as -0.105.
`TCCTTCAA` has an E-score of 0.191.
With `ATGTGACG` the E-score was 0.0514.
`CAGTCTGG` has an E-score of -0.175.
For `ACCCACTC`, the E-score was -0.0519.
`CACGACTA` has an E-score of -0.0756.
With `AAAACAAG` the E-score was 0.256.
`GCATGTAA` has an E-score of 0.122.
With `CTCCTCGC` the E-score was -0.218.

Set 3 — method: protein binding microarray; molecule type: double-stranded DNA, one strand shown; sample: in vitro; tested at: not given; reference: not given; direction: higher = stronger binding
Target: Histone acetyltransferase KAT6A, both winged helices, GST fusion (KAT6A, Homo sapiens, UniProt Q92794, residues 1-181)
Notes: 8-mer, flanks averaged, mean of 2 arrays, mostly near background
Construct (chain): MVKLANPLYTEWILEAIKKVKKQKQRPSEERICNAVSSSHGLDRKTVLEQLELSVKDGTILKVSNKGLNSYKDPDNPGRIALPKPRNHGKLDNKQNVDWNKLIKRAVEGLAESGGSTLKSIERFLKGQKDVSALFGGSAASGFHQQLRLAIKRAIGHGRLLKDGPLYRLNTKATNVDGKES
`ACTGATAG` has an E-score of -0.26.
For `AAAGTACT`, the E-score was -0.0466.
`TGGTGTAA` gave an E-score of -0.002.
`ACACCTCC` gave an E-score of -0.0615.
`GATCCCCA` gave an E-score of -0.163.
`GTCAGTTA` has an E-score of -0.101.
For `AGCTGACT`, the E-score was -0.109.
The E-score of `CGCATAGA` is reported as 0.0481.
With `AGGATCTA` the E-score was -0.17.
For `CCGGAACG`, the E-score was 0.202.
The E-score of `GTTTATTA` is reported as 0.109.
For `ACTACGCC`, the E-score was 0.0972.
The E-score of `GATAGTGA` is reported as 0.0199.
With `GACGTCGC` the E-score was 0.155.
`GGAAAGCA` gave an E-score of 0.118.
`ACAGCAGG` has an E-score of -0.0911.
For `GCGGGCCA`, the E-score was 0.191.
With `TCGCGCCA` the E-score was 0.166.
`GTTATTAA` gave an E-score of 0.125.
With `CTCCCTGC` the E-score was -0.125.
`GACTCATA` has an E-score of -0.138.
`GTTGTGAA` gave an E-score of -0.114.
With `CTCTGCAC` the E-score was -0.0811.
For `CCGTTTAA`, the E-score was 0.209.
With `GTTCTTAA` the E-score was -0.0548.

Set 4 — method: protein-binding microarray; molecule type: double-stranded DNA, one strand shown; sample: in vitro; tested at: 250 nM; notes: 60-bp whole probe; together with: salmon DNA 0.4 mg/ml; reference: random background probes; direction: higher = stronger binding; all sequences stand within: GCCTAGCAC … GTCTTGATTCGCTTGACGCTGCTG
Target: Interferon regulatory factor 5, full length, phosphomimetic (IRF5, Homo sapiens, UniProt Q13568-2, residues 1-514, K96S/S451D/S453D/S456D/S462D)
The log fluorescence of `TTAGGCCTGGACACTGGGTTAGTGCTA` is reported as -0.566 z-score.
The log fluorescence of `GACGGACTGGACACTGGGGGCGTGCTA` is reported as -0.0826 z-score.
For `GACGATATCTGTATCGAGACGTGCTAG`, the log fluorescence was 1.86 z-score.
For `TTAGATTTCAGGCTCGATTAGTGCTAG`, the log fluorescence was 0.503 z-score.
With `GACGATTTCAGTTCCGGGACGTGCTAG` the log fluorescence was 1.55 z-score.
`TTAGACTTCGGGTATCGATTAGTGCTA` has a log fluorescence of 3.67 z-score.
`AAGCAGTTACTCTAGAGGCCGTGCTAG` has a log fluorescence of -0.426 z-score.
With `TTAGAACTGAGTTTCGTTTAGTGCTAG` the log fluorescence was 7.68 z-score.
The log fluorescence of `ATAGGACTGGGGTTTCGGTTAGTGCTA` is reported as 6.39 z-score.
`TTAGATATCAGACTGGATTTGTGCTAG` has a log fluorescence of 0.374 z-score.
With `TTAGGACTGGCACTGGGTTAGTGCTAG` the log fluorescence was -0.325 z-score.
`TTAGATTTCAGTCTCGATTAGTGCTAG` has a log fluorescence of 2.98 z-score.
`TTAGATATCCTTTTCCTTTAGTGCTAG` gave a log fluorescence of 0.836 z-score.
For `GACGGACTGGGTTTCCGGACGTGCTAG`, the log fluorescence was -0.389 z-score.
`GCCTTTATATACCTGAATATGTGCTAG` gave a log fluorescence of 0.264 z-score.
The log fluorescence of `TCAACTCTCTAATTTTGAGAGTGCTAG` is reported as 0.391 z-score.
The log fluorescence of `TCTACTGTCTGTTTCCTCTTGTGCTAG` is reported as 0.937 z-score.
`CTGTGTTTCCTTGTACGTCGGTGCTAG` gave a log fluorescence of 0.565 z-score.

Set 5 — method: RNA Bind-n-Seq; molecule type: RNA; sample: in vitro; tested at: 200 nM; notes: whole 134-nt RNA, ends assumed; together with: 150 mM KCl; reference: input library; direction: higher = stronger binding
Target: Fragile X messenger ribonucleoprotein 1, C-terminal low-complexity region (Fmr1, Mus musculus, UniProt P35922)
All sequences stand within: GGGAGUUCUACAGUCCGACGAUC … UGGAAUUCUCGGGUGUCAAGG
The log2 enrichment of `ACCAUGCAGGUGGGCAUCUUUGGGAAGUGGGGCAAGGGGGGGAUAGAGAGGGGGGUAACACUUUGGGAACAGGUGGUCCCAGGUCGUUUC` is reported as 0.453.
With `GCAGGAAGUAAAAACAAAUGGAAAUGCUUUGGAUAGUGGCAGGGGUGGGGGUUGCUAAGGAAAGGGUGGGAUGGGAGUGGGUAAAGAGUU` the log2 enrichment was 0.375.
The log2 enrichment of `ACCAUGCAGGUGGGCAUCUUUGGGAAGUGGGGCAAGGGGGGGAUAGGGAGGGGGGUAACACUUUGGGAACAUGUGGUCCCAGGUCGUUUC` is reported as 0.848.
`UGGCCCUGGUGGCAUGCGGGGAGGAGGAGGUGGCCUCAUGGAUCGUGGUGGUCCCGGUGGAAUGUUCAGAGGUGGCCGUGGUGGAGACAG` has a log2 enrichment of 0.395.
For `ACCAUGCAGGUGGGCAUCUUUGGGAAGUGGGGCAAGGGGGGGAUAGGGAGGGGGGUAUCACUUUGGGAACAGGUGGUCCCAGGUCGUUUC`, the log2 enrichment was 0.995.
`CAAGUCCUGUGCUACACAUCGUAUGUACCGAAUCGGGUGGGAAAAAAAGGGAGGGAAAGUAUUAUGUUACGCCGUUCGGAUCUGCACUUC` has a log2 enrichment of 0.8.
`UAACUUUAGAGGAAGAUCUGAUGGAUAUGGCAGUGGACGUGGAUUUGGGGAUGGCUAUAAUGGGUAUGGAGGAGGACCUGGAGGUGGCAA` gave a log2 enrichment of 0.398.
The log2 enrichment of `UGGCCCUGGUGGCAUGCGGGUAGGAAGAGGUGGCCUCAUGGAUCGUGGUGGUCCCGGUGGAAUGUUCAGAGGUGGCCGUGGUGGAGACAG` is reported as 0.0152.
`AGUCCUGUGCUACACAUCGUAUGUACCGAAUCGGUUUUUGGUUUUUGGGUUUUUGGGAAAGUAUUAUGUUACGCCGUUCGGAUCUGCACU` gave a log2 enrichment of -0.669.
With `UGGCCCUGGUGGCAUGCGGGGAGGAAGAGGUGGCCUCAUGGAUCGUGGUGGUCCCGCUGGAAUGUUCAGAGGUGGCCGUGGUGGAGACAG` the log2 enrichment was -0.31.

Excerpt of the above (set 2):
`ATCATTAC` has an E-score of 0.3.
With `AAAGTTAC` the E-score was 0.158.
The E-score of `GGAGTGCC` is reported as -0.271.
With `AGCATAAA` the E-score was 0.33.
`CAGCGCCA` has an E-score of -0.274.
For `GCACGTTA`, the E-score was -0.0255.
The E-score of `AGGACTCG` is reported as -0.105.
`TCCTTCAA` has an E-score of 0.191.
